Experimental data pooled from the literature.
Protocols differ between the studies behind these lines. ± gives the spread as reported.
Htr1a: 5-hydroxytryptamine receptor 1A (Htr1a, Rattus norvegicus, UniProt P19327)
Chain of UniProt P19327 (whole entry, looked up): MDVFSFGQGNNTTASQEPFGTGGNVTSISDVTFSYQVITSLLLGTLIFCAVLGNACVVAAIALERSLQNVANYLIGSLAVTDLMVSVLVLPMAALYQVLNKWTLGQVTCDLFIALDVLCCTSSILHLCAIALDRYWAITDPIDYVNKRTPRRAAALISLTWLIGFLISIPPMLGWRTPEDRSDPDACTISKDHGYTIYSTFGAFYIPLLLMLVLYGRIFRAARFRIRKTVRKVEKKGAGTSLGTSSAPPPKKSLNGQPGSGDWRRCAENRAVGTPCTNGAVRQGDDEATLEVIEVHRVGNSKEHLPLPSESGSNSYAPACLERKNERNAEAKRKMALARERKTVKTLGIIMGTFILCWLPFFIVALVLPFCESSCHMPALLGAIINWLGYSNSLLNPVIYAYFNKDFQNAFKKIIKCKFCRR
FAP: Prolyl endopeptidase FAP (FAP, Homo sapiens, UniProt Q12884)
Chain of UniProt Q12884 (whole entry, looked up): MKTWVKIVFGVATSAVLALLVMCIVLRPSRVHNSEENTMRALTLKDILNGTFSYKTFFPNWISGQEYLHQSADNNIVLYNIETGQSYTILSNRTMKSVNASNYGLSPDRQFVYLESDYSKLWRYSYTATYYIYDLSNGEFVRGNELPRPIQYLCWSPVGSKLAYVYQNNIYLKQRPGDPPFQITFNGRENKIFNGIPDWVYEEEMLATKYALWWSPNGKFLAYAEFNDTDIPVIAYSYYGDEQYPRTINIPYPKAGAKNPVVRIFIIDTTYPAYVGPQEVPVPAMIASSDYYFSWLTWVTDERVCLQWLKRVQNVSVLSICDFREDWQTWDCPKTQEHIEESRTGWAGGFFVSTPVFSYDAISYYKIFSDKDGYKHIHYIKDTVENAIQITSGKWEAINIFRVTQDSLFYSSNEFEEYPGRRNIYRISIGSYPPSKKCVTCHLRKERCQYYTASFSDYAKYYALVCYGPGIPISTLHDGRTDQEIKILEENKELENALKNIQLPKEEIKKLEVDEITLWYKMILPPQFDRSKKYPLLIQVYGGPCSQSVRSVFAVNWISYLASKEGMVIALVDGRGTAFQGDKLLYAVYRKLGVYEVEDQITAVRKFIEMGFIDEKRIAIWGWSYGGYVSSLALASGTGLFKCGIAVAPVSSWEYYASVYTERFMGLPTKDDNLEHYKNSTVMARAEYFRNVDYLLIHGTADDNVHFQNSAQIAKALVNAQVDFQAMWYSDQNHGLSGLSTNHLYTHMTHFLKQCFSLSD
5-hydroxytryptamine receptor 2A: 5-hydroxytryptamine receptor 2A (Rattus norvegicus, UniProt P14842)
Chain of UniProt P14842 (whole entry, looked up): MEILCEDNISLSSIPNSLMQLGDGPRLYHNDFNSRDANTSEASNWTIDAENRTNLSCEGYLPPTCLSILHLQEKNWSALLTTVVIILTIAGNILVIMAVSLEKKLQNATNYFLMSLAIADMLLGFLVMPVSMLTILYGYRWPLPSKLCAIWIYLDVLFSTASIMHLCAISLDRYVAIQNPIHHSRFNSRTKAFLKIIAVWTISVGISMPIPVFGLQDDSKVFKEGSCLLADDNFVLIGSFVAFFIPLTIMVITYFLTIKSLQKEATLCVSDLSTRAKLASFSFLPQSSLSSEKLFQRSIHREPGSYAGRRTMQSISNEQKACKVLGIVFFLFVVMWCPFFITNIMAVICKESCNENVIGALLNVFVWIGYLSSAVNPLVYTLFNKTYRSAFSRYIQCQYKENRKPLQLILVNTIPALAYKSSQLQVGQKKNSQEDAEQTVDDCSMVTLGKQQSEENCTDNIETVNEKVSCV
CHRM4: Muscarinic acetylcholine receptor M4 (CHRM4, Homo sapiens, UniProt P08173)
Chain of UniProt P08173 (whole entry, looked up): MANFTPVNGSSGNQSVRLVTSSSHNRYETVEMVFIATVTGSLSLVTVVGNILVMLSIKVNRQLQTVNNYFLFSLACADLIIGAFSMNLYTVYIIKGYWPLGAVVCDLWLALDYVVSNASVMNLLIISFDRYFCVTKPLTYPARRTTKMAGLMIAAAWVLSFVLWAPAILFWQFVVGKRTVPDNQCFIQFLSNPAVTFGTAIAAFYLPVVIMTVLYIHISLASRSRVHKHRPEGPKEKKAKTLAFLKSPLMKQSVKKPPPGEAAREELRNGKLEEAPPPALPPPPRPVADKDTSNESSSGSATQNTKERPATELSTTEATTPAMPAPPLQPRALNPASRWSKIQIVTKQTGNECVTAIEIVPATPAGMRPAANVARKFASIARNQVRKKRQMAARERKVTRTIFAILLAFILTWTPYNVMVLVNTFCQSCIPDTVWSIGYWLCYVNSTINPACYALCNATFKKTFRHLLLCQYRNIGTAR
Beta-lactamase CTX-M-14: Beta-lactamase CTX-M-14 (Escherichia coli, UniProt Q9L5C7)
FUT6: 4-galactosyl-N-acetylglucosaminide 3-alpha-L-fucosyltransferase FUT6 (FUT6, Homo sapiens, UniProt P51993)
Chain of UniProt P51993 (whole entry, looked up): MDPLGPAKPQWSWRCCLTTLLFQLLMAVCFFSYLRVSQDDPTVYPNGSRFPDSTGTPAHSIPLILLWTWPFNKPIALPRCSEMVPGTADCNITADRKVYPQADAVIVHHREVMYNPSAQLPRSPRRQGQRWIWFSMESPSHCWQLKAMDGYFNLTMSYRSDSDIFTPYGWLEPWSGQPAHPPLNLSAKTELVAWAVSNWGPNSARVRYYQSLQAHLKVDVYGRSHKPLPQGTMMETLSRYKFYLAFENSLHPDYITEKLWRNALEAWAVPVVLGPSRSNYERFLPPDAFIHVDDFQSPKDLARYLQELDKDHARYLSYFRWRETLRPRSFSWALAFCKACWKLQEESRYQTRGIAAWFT
CASP1: Caspase-1 (CASP1, Homo sapiens, UniProt P29466)
Chain of UniProt P29466 (whole entry, looked up): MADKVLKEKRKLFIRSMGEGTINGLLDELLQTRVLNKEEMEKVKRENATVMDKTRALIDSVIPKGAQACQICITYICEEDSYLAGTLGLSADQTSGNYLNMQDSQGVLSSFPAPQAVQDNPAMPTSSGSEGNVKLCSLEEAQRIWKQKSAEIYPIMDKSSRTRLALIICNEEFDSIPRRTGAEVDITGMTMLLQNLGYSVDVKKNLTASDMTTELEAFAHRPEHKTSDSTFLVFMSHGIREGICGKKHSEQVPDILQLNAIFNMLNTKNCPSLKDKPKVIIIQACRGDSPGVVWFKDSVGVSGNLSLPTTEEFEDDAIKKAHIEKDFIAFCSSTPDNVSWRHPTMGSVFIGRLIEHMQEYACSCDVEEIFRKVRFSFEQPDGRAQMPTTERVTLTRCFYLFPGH
TACR1: Substance-P receptor (TACR1, Homo sapiens, UniProt P25103)
Chain of UniProt P25103 (whole entry, looked up): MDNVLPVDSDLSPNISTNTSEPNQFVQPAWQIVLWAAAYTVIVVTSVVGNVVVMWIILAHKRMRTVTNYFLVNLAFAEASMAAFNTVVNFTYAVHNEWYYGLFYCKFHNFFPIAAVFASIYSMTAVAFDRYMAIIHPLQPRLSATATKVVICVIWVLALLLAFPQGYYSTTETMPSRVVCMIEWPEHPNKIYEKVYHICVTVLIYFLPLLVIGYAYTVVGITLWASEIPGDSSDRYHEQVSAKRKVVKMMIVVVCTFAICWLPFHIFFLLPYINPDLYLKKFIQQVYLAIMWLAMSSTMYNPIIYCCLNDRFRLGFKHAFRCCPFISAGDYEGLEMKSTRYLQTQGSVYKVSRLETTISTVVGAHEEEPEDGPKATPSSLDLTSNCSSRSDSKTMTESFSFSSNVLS
Chain of UniProt P20035 (whole entry, looked up): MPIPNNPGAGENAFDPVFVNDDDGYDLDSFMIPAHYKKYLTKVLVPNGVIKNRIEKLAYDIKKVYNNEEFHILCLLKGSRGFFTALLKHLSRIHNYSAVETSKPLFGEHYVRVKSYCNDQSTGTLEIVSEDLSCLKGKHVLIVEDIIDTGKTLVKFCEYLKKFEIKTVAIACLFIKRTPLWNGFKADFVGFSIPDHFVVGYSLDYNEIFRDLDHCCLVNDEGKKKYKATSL
Chain of UniProt Q9NR56 (whole entry, looked up): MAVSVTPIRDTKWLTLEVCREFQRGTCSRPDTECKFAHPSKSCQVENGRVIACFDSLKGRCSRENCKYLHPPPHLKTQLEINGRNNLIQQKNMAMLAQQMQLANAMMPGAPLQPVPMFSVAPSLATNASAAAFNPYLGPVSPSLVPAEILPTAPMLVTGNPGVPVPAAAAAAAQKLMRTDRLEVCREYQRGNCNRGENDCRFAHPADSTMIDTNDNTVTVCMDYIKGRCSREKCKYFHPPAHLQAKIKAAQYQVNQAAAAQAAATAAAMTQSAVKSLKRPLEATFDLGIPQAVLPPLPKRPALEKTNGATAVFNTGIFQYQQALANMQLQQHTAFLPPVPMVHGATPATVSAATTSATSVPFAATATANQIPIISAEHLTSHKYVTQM
Chain of UniProt Q14973 (whole entry, looked up): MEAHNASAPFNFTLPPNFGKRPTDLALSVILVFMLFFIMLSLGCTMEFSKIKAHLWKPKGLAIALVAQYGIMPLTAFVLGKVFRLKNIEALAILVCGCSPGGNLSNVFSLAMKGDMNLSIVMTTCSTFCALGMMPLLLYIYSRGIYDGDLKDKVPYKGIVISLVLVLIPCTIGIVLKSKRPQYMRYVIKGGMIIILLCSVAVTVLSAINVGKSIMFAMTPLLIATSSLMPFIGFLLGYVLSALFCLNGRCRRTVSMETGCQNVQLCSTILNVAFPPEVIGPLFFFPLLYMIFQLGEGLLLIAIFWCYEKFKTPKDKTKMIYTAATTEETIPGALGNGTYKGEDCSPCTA
Chain of UniProt P11609 (whole entry, looked up): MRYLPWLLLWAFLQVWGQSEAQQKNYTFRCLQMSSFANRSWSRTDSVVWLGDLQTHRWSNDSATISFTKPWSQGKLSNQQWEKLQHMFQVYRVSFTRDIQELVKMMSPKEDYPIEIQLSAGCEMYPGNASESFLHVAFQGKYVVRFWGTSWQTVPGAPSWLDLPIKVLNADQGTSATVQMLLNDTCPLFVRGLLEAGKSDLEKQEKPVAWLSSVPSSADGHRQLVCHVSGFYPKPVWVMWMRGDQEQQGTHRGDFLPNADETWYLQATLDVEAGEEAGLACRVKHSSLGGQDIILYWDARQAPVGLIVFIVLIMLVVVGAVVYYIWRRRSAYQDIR
Chain of UniProt Q00535 (whole entry, looked up): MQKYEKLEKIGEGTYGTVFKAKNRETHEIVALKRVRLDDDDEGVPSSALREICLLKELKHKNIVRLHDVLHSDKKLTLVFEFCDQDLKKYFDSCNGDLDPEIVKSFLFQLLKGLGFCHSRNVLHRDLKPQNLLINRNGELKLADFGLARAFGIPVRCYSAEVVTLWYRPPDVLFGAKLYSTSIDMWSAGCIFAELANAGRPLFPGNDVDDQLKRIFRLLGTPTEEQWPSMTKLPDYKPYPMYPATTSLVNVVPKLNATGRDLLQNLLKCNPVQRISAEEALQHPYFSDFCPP

Clc1cc(CN2CCCCC2)ccc1OCCCN1CCN(c2cccc3sccc23)CC1
Ki (Htr1a; cell-free assay, radioligand): 0.253 µM

O=Cc1ccc(-c2cn([C@@H]3O[C@H](COP(=O)(O)OP(=O)(O)O[C@H]4O[C@H](CO)[C@H](O)[C@H](O)[C@H]4O)[C@@H](O)[C@H]3O)c(=O)[nH]c2=O)s1
Ki (LgtC (lgtC, Neisseria meningitidis, UniProt Q93EK7); galactosyltransferase activity, inhibitor, radiochemical; together with: 5 µM UDP-galactose): 0.45 µM

N=C(N)NCCC[C@H](NC(=O)[C@@H](N)Cc1ccccc1)C(=O)NCCOCCOCC(=O)NCC(=O)N1CCCCC1
Ki (FAP; enzyme activity, inhibitor, fluorescence; pH 7.5): 264 µM

Clc1cc(OCCCN2CCN(c3cccc4sccc34)CC2)ccc1CN1CCOCC1
Ki (5-hydroxytryptamine receptor 2A; cell-free assay): 0.157 µM

CCCCOc1ccc(C(=O)OCCN2CC=CCC2)cc1
Ki (CHRM4; ligand displacement, radioligand; cell membranes): 11.2 µM

CC(=O)N[C@@H](CCCNC(=N)N)C(=O)NCCOCCOCC(=O)N[C@H](C)C(=O)N1CCC[C@H]1B(O)O
Ki (FAP; inhibitor, fluorogenic substrate; together with: Tic-Pro-AFC): ~0.005 µM

CC(C)C[C@H](NC(=O)[C@H](CCCCN)NC(=O)[C@H](CCCCN)NC(=O)[C@H](C)NC(=O)[C@H](CCCCN)NC(=O)[C@H](CCCCN)NC(=O)[C@@H]1CCCN1C(=O)[C@H](C)NC(=O)[C@H](CCCCN)NC(=O)[C@@H]1CCCN1)C(=O)O
Ki (Cyclin-dependent kinase 5, with p25 (CDK5, Homo sapiens, UniProt Q00535); inhibitor; 0.2 mM Mg2+, together with: peptide substrate varied): 200 ± 100 µM

CC(C)CNC(=O)[C@@H](NC[C@@H](O)[C@H](Cc1ccccc1)NC(=O)c1cc(C(=O)N(C)[C@H](C)c2ccccc2)cc(N(C)S(C)(=O)=O)c1)[C@H](C)O
Ki (Beta-secretase 2 (BACE2, Homo sapiens, UniProt Q9Y5Z0)): 0.0805 ± 0.0047 µM

O=C(Nc1cccc(-c2nn[nH]n2)c1)c1cc(-c2ccccn2)cc(C(F)(F)F)c1
Ki (Beta-lactamase CTX-M-14; enzyme activity, inhibitor, absorbance; pH 7): 27.7 µM

O=C1Nc2ccccc2N(C(=O)CN2CCC(CCCCN3CCN(CCCCOC(=O)C4c5ccccc5Oc5ccccc54)CC3)CC2)c2ccccc21
Ki (CHRM4; ligand displacement, radioligand): 0.0302 µM

Nc1nc2c(ncn2[C@@H]2O[C@H](COP(=O)(O)OP(=O)(O)O[C@H]3O[C@@H](CNC(=O)c4ccccc4)[C@@H](O)[C@@H](O)[C@@H]3F)[C@@H](O)[C@H]2O)c(=O)[nH]1
Ki (FUT6; enzyme activity, inhibitor): 12.9 µM

CN(C)c1ccc(-n2cc(COC(=O)[C@@]3(C)C=C(C(=O)OC(C)(C)C)C(=O)CC3)nn2)cc1
Ki (Mitogen-activated protein kinase 8 (MAPK8, Homo sapiens, UniProt P45983); ligand displacement, FP): 13.6 µM

COc1cc(CN2CCCC2)ccc1OCCN1CCN(c2cccc3sccc23)CC1
Ki (5-hydroxytryptamine receptor 2A; cell-free assay): 0.157 µM

COc1ccc2nc3cc(Cl)ccc3c(NCCCCc3c(N)nc(N)nc3N)c2c1
Ki (Muscleblind-like protein 1, with cTNT RNA (Homo sapiens, UniProt Q9NR56); MBNL1-RNA binding, gel mobility shift; no tRNA, together with: cTNT RNA, 15 nM MBNL1): 6.7 ± 1.6 µM

CN(C(=O)CNC(=O)[C@@H]1CCCN1C(=O)[C@@H]1CCCN1C(=O)[C@H](CCCNC(=N)N)NC(=O)[C@@H](N)CCCCN)[C@@H](Cc1ccccc1)C(=O)N[C@@H](CO)C(=O)N1CCC[C@H]1C(=O)N[C@@H](Cc1ccccc1)C(=O)O
Ki (B1 bradykinin receptor (BDKRB1, Homo sapiens, UniProt P46663); ligand displacement, radioligand; pH 7.4, cell membranes): 2.03 µM

CC(=O)NCC(=O)N[C@@H](CCC(=O)O)C(=O)N[C@@H](CO)C(=O)N1CCC[C@H]1C(=O)N[C@H](C=O)CC(=O)O
Ki (CASP1; enzyme activity, inhibitor, fluorescence; pH 7): 0.302 µM

CC(=O)NCC1OC(OP(=O)(O)OP(=O)(O)OCC2OC(n3cnc4c(=O)[nH]c(N)nc43)C(O)C2O)C(F)C(O)C1O (stereo not drawn)
Ki (FUT6; enzyme activity, inhibitor): 13.5 µM

CN1CCN(Cc2ccc(OCCCN3CCN(c4cccc5sccc45)CC3)cc2)CC1
Ki (5-hydroxytryptamine receptor 2A; cell-free assay): 0.12 µM

CCCCc1ccc(N2C(=O)/C(=N\NC(=N)N)c3cc(C)ccc32)cc1
Ki (Penicillin-binding protein 1B (mrcB, Escherichia coli K-12, UniProt P02919); transglycosylation activity, inhibitor; together with: dansyl-lipid II): 3.2 µM

O=C(Nc1cccc(-c2nn[nH]n2)c1)c1cc(-c2ccncn2)cc(C(F)(F)F)c1
Ki (Beta-lactamase CTX-M-14; enzyme activity, inhibitor, absorbance; pH 7): 18.9 µM

Cc1ccccc1-c1cc(N2CCCCC2)ccc1N(C)C(=O)C(C)(C)c1cc(C(F)(F)F)cc(C(F)(F)F)c1
Ki (TACR1; cell-free assay; pH 7.4): 0.071 µM

COc1cc(CN2CCOCC2)ccc1OCCCN1CCN(c2cccc3sccc23)CC1
Ki (5-hydroxytryptamine receptor 2A; cell-free assay): 0.118 µM

O=C(Nc1cccc(-c2nn[nH]n2)c1)c1cc(-c2ccco2)cc(C(F)(F)F)c1
Ki (Beta-lactamase CTX-M-14; enzyme activity, inhibitor, absorbance; pH 7): 17.2 µM

CCCCCCCCCCCCCC[C@@H](O)[C@@H](O)[C@H](CO[C@H]1O[C@H](CO)[C@H](O)[C@H](O)[C@H]1O)NC(=O)CCCCCCCCc1ccccc1
Ki (Cd1d1 (Mus musculus, UniProt P11609); competitive binding on microarray; together with: surface-printed ligand): 3.1 ± 0.3 µM

CC(=O)N[C@@H](CCC(N)=O)C(=O)N[C@@H](CC(=O)O)C(=O)N[C@H](C(=O)N[C@@H](CCCNC(=N)N)C(=O)N[C@H](C=O)CC(=O)O)[C@@H](C)O
Ki (CASP1; enzyme activity, inhibitor, fluorescence; pH 7): 3.09 µM

O=C(Nc1cccc(-c2nn[nH]n2)c1)c1cc(-c2cccs2)cc(C(F)(F)F)c1
Ki (Beta-lactamase CTX-M-14; enzyme activity, inhibitor, absorbance; pH 7): 27.3 µM

CCC[C@H](NC(=O)[C@H](COC(=O)c1ccccc1)NC(=O)[C@@H](N)Cc1ccccc1)C(=O)O
Ki (Solute carrier family 15 member 1 (SLC15A1, Homo sapiens, UniProt P46059); [14C]Gly-Sar uptake, inhibitor; Caco-2 cells; together with: [14C]Gly-Sar 20 µM): 120 µM

N=C(N)NCCCc1c[nH]cn1
Ki (Histamine H2 receptor (HRH2, Homo sapiens, UniProt P25021); ligand displacement, radioligand; cell membranes): 4.07 µM

O=P(O)(O)CC[C@@H](CO)NCc1c[nH]c2c(O)nc(O)nc12
Ki (Hypoxanthine-guanine-xanthine phosphoribosyltransferase (Plasmodium falciparum, UniProt P20035); enzyme activity, inhibitor; pH 7.4): 8 µM

Cc1cc(OCCCN2CCN(c3cccc4sccc34)CC2)ccc1CN1CCCC1
Ki (Htr1a; cell-free assay, radioligand): 0.164 µM

Nc1nc2c(ncn2[C@@H]2O[C@H](COP(=O)(O)OP(=O)(O)O[C@H]3O[C@@H](CNC(=O)c4ccc(-c5ccccc5)cc4)[C@@H](O)[C@@H](O)[C@@H]3F)[C@@H](O)[C@H]2O)c(=O)[nH]1
Ki (FUT6; enzyme activity, inhibitor): 10.4 µM

Cc1cccc(-c2ccc([C@@H]3[C@@H](CO)N4CCCCN(S(=O)(=O)c5nccn5C)C[C@@H]34)cc2)c1C
Ki (Insulin-degrading enzyme (IDE, Homo sapiens, UniProt P14735)): 0.0017 µM

O=C1Nc2ccccc2N(C(=O)CN2CCC(CCCCN3CCC(OC(=O)C(c4ccccc4)c4ccccc4)CC3)CC2)c2ccccc21
Ki (CHRM4; ligand displacement, radioligand): 0.00851 µM

COCCOc1cc2ncnc(Nc3cccc(-c4cn(CC(=O)Nc5ccc(S(N)(=O)=O)cc5)nn4)c3)c2cc1OCCOC
Ki (Carbonic anhydrase 12 (CA12, Homo sapiens, UniProt O43570); enzyme activity, inhibitor, stopped-flow): 0.007 µM

COc1ccc(/C=C/c2cc(O)cc(O)c2)cc1O
Ki (Xanthine dehydrogenase/oxidase (XDH, Bos taurus, UniProt P80457); uric acid formation, inhibitor; pH 10.0, 25 °C, together with: xanthine): 3.5 ± 0.2 µM

C[C@H](CCC(=O)NCC(=O)O)[C@H]1CC[C@H]2[C@@H]3[C@H](OC(=O)c4cccnc4)C[C@H]4C[C@H](O)CC[C@]4(C)[C@H]3CC[C@]12C
Ki (Hepatic sodium/bile acid cotransporter (SLC10A1, Homo sapiens, UniProt Q14973); transporter uptake, inhibitor, radiometric): 9.29 µM

CCC(=O)NC1CN(CCCCC2CCN(CC(=O)N3c4ccccc4NC(=O)c4ccccc43)CC2)CCN(CCCOc2nsnc2C2=CCCN(C)C2)C1 (stereo not drawn)
Ki (CHRM4; ligand displacement, radioligand): 0.00575 µM

Cc1ccccc1-c1cc(N2CCN(CCCN3C(=O)C=CC3=O)CC2)ccc1N(C)C(=O)C(C)(C)c1cc(C(F)(F)F)cc(C(F)(F)F)c1
Ki (TACR1; cell-free assay, BRET; pH 6): 0.0123 µM

COc1cccc(C(=O)CC(N)C(=O)O)c1 (stereo not drawn)
Ki (Kynureninase (kynU, Pseudomonas fluorescens, UniProt P83788); inhibitor): 10 µM

For quick reference, copied from above:
CC(=O)N[C@@H](CCCNC(=N)N)C(=O)NCCOCCOCC(=O)N[C@H](C)C(=O)N1CCC[C@H]1B(O)O
Ki (FAP; inhibitor, fluorogenic substrate; together with: Tic-Pro-AFC): ~0.005 µM

CC(C)C[C@H](NC(=O)[C@H](CCCCN)NC(=O)[C@H](CCCCN)NC(=O)[C@H](C)NC(=O)[C@H](CCCCN)NC(=O)[C@H](CCCCN)NC(=O)[C@@H]1CCCN1C(=O)[C@H](C)NC(=O)[C@H](CCCCN)NC(=O)[C@@H]1CCCN1)C(=O)O
Ki (Cyclin-dependent kinase 5, with p25 (CDK5, Homo sapiens, UniProt Q00535); inhibitor; 0.2 mM Mg2+, together with: peptide substrate varied): 200 ± 100 µM
